Assay results from different studies.
Each numbered part is a random draw from the data of one study; scales do not carry over between parts. Values joined by “and” are separate records of one study, mostly repeats; a detail may differ. Changes are numbered by the printed parent chain.

Series 1
Target: Histone acetyltransferase KAT6A, winged helix 1, GST fusion (KAT6A, Homo sapiens, UniProt Q92794, residues 1-85)
Method: protein binding microarray
Form: double-stranded DNA, one strand shown
Sample: in vitro
Concentration: not given
Setting: 8-mer, flanks averaged, mean of 2 arrays, mostly near background
Baseline: not given
Reading: higher = stronger binding
Construct (chain): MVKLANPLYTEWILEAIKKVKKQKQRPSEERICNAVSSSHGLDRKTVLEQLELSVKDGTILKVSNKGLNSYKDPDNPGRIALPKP
| Oligonucleotide | E-score |
| --- | --- |
| CGACTTCA | 0.0201 |
| CTGAGCCC | -0.0388 |
| CCGACCGC | 0.359 |
| CCCCACCG | 0.239 |
| CCTGAGAG | -0.131 |
| AACCGCCT | 0.203 |
| ACAAAGTG | -0.125 |
| CCACCAGC | -0.212 |
| ATGTCGTA | -0.182 |
| ACGATAAT | -0.0719 |
| GTGAAAAC | 0.047 |
| AGCGTACT | 0.137 |
| AGCTAAAG | -0.24 |
| GCCCAAGC | 0.102 |
| CCAAGCGC | 0.311 |
| AAGGTTAT | -0.0514 |
| ACCCTAAG | -0.28 |
| ACGGATAA | 0.157 |
| GCCCACTA | -0.27 |
| AATCCATA | -0.195 |

Series 2
Target: Sal-like protein 4, full length isoform B (SALL4, Homo sapiens, UniProt Q9UJQ4-2, residues 1-616)
Method: universal PBM
Form: double-stranded DNA, one strand shown
Sample: in vitro
Concentration: not given
Setting: 8-mer, flanks averaged, mean of replicates
Reading: higher = stronger binding
Target sequence (chain): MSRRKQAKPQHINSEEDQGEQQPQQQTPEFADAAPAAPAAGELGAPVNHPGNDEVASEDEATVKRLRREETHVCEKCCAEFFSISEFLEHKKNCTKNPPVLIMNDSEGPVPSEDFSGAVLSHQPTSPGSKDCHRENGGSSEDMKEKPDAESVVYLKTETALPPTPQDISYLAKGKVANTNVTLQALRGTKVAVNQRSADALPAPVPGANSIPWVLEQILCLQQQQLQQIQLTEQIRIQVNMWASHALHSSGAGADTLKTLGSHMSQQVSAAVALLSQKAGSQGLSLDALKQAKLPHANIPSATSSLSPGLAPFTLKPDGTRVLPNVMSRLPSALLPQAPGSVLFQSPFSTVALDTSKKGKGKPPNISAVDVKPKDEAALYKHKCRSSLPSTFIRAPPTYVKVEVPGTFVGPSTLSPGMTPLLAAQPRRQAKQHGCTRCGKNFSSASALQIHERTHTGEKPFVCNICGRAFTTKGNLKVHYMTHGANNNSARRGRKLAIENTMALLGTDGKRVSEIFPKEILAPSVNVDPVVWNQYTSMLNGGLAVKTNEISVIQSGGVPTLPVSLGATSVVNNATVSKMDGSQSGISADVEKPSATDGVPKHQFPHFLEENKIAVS
| Oligonucleotide | E-score |
| --- | --- |
| TAGGTAGA | 0.0365 |
| ACTTTTCT | 0.165 |
| CCCCCAGG | -0.317 |
| GTTCAACA | 0.111 |
| CTAAATAG | 0.138 |
| ATGACCCA | 0.148 |
| ACTGACTC | -0.103 |
| CGCTTCTC | -0.245 |
| AAATTAGC | 0.104 |
| ATATGGGG | 0.116 |
| CGTCTCAG | -0.189 |
| AGGACAAT | 0.136 |
| CCAAATTA | 0.278 |
| AACAGAGT | 0.0252 |
| ACTAGTTG | -0.0338 |
| CACCTCGA | -0.12 |
| GGGGTCGA | -0.3 |
| CGCATCGA | -0.0387 |

Series 3
Target: RING finger protein unkempt homolog, zinc fingers 1-6, GST-SBP tag (UNK, Homo sapiens, UniProt Q9C0B0, residues 30-357)
Method: RNA Bind-n-Seq
Form: RNA
Sample: in vitro
Concentration: not given
Setting: RNA with constant flanks, ends assumed
Baseline: input RNA pool
Reading: higher = stronger binding
Constant ends, left off below: GGGAGUUCUACAGUCCGACGAUC … CAACAGAGGAUUGAGCAUCA
Target sequence (chain): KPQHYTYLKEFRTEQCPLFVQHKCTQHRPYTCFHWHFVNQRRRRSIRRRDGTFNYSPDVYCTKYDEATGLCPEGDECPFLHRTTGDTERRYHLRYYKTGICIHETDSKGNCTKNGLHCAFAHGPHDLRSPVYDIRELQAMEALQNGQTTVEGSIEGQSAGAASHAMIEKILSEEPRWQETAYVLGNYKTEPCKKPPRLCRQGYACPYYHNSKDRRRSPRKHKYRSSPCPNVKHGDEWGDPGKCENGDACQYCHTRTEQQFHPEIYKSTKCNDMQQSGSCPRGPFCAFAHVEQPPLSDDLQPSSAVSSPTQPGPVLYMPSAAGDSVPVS
| Oligonucleotide | bound/input enrichment [ratio] |
| --- | --- |
| CGAGAAGCUGUUUGCAUCGUCCUUUCUGAUGAUACUUGUUCUGAUGAGAAGAUUCGGAUGAACCGAGUUGUUCGGAAUAACCUUCGUGUACGCCUAGGGGAUGUCAUCAGCAUCCAGCCA | 0.0995 |
| CAAAAGAUCCUGGCUAACUGUUCUUCUCCCUACCAGGUAGACCUGUUUGGUAUAGCAGAUUCCGCACAUUUACUAUUGUUCAAGGAACACCUACAGGUCUUCUGGGAUGGGUCCUUCUGG | 0.0577 |
| AAUGAAGCUGAAAUAUGUGAGAGCAUGCCCAUGGUCUCUGGAGCACCAGCACAAGGGUUGGCCGCAAGACCAUCCAGUGUGAACUAUAUGGUAGCACCUGUGACAGGUAACGAUGCUGGA | 0.107 |
| GAAUACAUAGGUGAAGAAGAAGCUACAUUAGUUGAUUUUGUUUGCUCUAAGGUUAUGGCACACCGUUCACCACAGAGCAUUUUAGAUGAUGUUGCCAUGGUACUAGAUGAAGAAGCAGAA | 1.41 |
| UUCACCGAAGUUGCAAUUGGCCCAUCCGUGCUCAAUGCUGCCAGAGAUGAUAUUAGCAAGCUCCGGAAUACACUUCGCUUUCUUUUGGGAAAUGUGGCUGAUUUCAACCCAGAAACAGAU | 0.187 |
| CUUCAGUUACAUCCCAGGGAAGAUGCUUGCAUCCCCAAUACAAACUAUGGUGUUCUCUUAACCGAAUUUUUUGAAUUAUAUGGACGACACUUCAAUUAUUUAAAGACUGGCAUCCGGAUA | 0.274 |
| UGUGUGUGUGUGAGAGAGAGAGAGAGAGAGAGAGAGAGAGAGAGAGAGAGAGAUCUACCCAUCCGAAUUGAUUUAGGUGCCCAUUGCAUCUUUUGUACUAUGGAGUUGUUUACAGUAAGC | 2.37 |
| CUAGCAGUUAUAAGGCACCUUGAAAUAAAUUGUUUGUGCCUGGAAAUGCAGGGAGGGCAACCGCUUUGUAAAUUGGUUUACAUUUUUCUCCUUGAAUUUUUCUAGGGUCCUAGUGCUUCC | 0.543 |

Series 4
Target: RNA binding protein fox-1 homolog 2, RRM domain, GST-SBP tag (RBFOX2, Homo sapiens, UniProt O43251-10, residues 100-194)
Method: RNA Bind-n-Seq
Form: RNA
Sample: in vitro
Concentration: 365 nM
Setting: natural RNA segment, single round, ends assumed
Baseline: no-protein control
Reading: higher = stronger binding
Constant ends, left off below: GGGAGUUCUACAGUCCGACGAUC … UGGAAUUCUCGGGUGCCAA
Construct (chain): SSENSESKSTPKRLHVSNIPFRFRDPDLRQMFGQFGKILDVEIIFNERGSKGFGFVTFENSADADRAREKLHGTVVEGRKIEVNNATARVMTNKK
| Oligonucleotide | RBNS enrichment (R) |
| --- | --- |
| CUGAAGUCUCUAUUUUCCAAGUUGUCCUUUCUCUUAAAAUACCCUUUACUGAUUUAAUACAGAAUAACAAUCUUAUUUUCCACUUGGUAACUAUGGCUUUAUGUUGGGUU | 0.417 |
| GUGCUCACCUCCUAGGCCAUGGAGCCUGAGGGGGCCUGCACCAGGUUUGCUGAAACUGACAGAGCCUGGGCUCCAGACCUCUCUCCCUCCUACAGUGCUCUCCCUCCCUG | 0.921 |
| CUCCAAGGACCCAGGCGCCAGCAGCCCCAGGACACAGGGGACUCAGUGUGUGGGACUUGGUCACUCCAUGUCAGACACACGAGCAGAGAGGAACACAAACCACUGUGGAG | 0.315 |
| GAUCAUUUAGGACAUUAUCACAAGUUGCUAUGGAAAUAACUGAAGACUUCCUCAGGAGAAGGAAAGAAAAUGAGGAACAUAAUGAUAGAGUCGGGGAACUCCCACUAGCU | 0.979 |
| CUCCACUCGACCCAGAAUGGAGCCUGCUCUCCGCGCCUACCCUUCCCGCCUCCCUCUCAGAGGCCUGCUGCCAGUGCAGCCACUGGCUUGGAACACCUUGGGGUCCCUCC | 0.29 |
| UGGGGACUUCCUUCGUCAGCACUGGCUUUCUGUUUUCACAAGACAGACGUCUGUCCCGCUGCUCUCUCCCCAUCUCCUACCCCACAUCCUGUCUUAGCCGCAGUCUCCAG | 0.535 |
| UUGGUUUUGUUGGAGAGUGUCAGACUGAUCUGGAAGUGAAACACAGUUUAUGUACAGGGAAAAGGAUUUUAUUAUCCUUAGGAAUGUCAUCCAAGACGUAGAGCUUGAAU | 0.861 |
| UAUUCCCCAAGAGUGGUAACUAACCCACAGCCCUGCUCGGUGUGCCCACCGCUGAGAGGCUGCAGUGACUUCCCCAAGUACCGUGGUCUGUGCUAAUUUGUUUUCAGAUU | 0.294 |
| CAAAAAUGAUGCCUUUCUGUAGGCUGGUGUUGUUGCCUCCCUCCCAGGAUCCCUUUGGUGAGUAUGGUGUUCAGGAUGCACCACCACCACCUCUAGAUACCUUCAGGCAA | 0.446 |
| UGCUGCAGAGCUGUGCCUCGCUGUGGAAAGCCCCAGCCCCACACAGAGAGCAAACAGUGAGAUAACAGGAGCUGUCUGUCGCAAAGCUUGCUUUCCACUGACACUCAGUU | 0.19 |
| CAGCCAUGCCUGGCUAGGACAGCCAAAUUGUUGUUGUUUCAAGUCUGGUUUCAUUUGCUUCCCUGCCGGGUUUAUUGUGUGUACCCCAUUUGUACUCCCAAUAACCUGAA | 0.325 |
| UUAGCAGAAUUACAGAUCUUAAGUACUAACUGCAGUCCAAGAUGGAAGAGUACUCAGCAGCCACUGCCCUCAUCAGGAACCUCCUCGGCAUCCAUCAGUCUCCUCACUGC | 0.306 |

Series 5
Target: CCND2, cyclin fold, Cln2 fusion (human)
Method: yeast growth competition, sequencing
Sample: yeast
Setting: weak parent motif
Baseline: not given
Reading: higher = stronger binding
Parent: TICRR docking peptide (human); TKVRRNLFNQELL
| Substitution | normalised enrichment score |
| --- | --- |
| TKVRRNLFNQEAL [L12A] | -0.412 |
| TKVRRNLANQELL [F8A] | -0.184 |
| TKVRKNLLNQELL [R5K F8L] | 0.356 |
| TAVRRNLFNQELL [K2A] | 0.681 |
| TKVRRNLFNQALL [E11A] | 0.274 |
| TKARRNLFNQELL [V3A] | -0.357 |
| TKVRANLFNQELL [R5A] | 0.38 |

Further values, each from its own experiment
| Substance | target | test | test system | conditions | scale | quantity | result |
| --- | --- | --- | --- | --- | --- | --- | --- |
| PhoQ, residues 284 288 289 292 302 303 GASLAW | PhoP, residues 12 14 15 18 19 LWHSL (Escherichia coli, UniProt P23836) | Sort-seq, refers to: YFP reporter | E. coli | PhoQ-PhoP variant library, with: 10 µM Mg2+ | baseline: high Mg2+ state, higher = stronger signaling | fold induction | 29.2 and 12.3 |

Some of these lines once more (series 4):
| Oligonucleotide | RBNS enrichment (R) |
| --- | --- |
| CUCCAAGGACCCAGGCGCCAGCAGCCCCAGGACACAGGGGACUCAGUGUGUGGGACUUGGUCACUCCAUGUCAGACACACGAGCAGAGAGGAACACAAACCACUGUGGAG | 0.315 |
| GAUCAUUUAGGACAUUAUCACAAGUUGCUAUGGAAAUAACUGAAGACUUCCUCAGGAGAAGGAAAGAAAAUGAGGAACAUAAUGAUAGAGUCGGGGAACUCCCACUAGCU | 0.979 |
| CUCCACUCGACCCAGAAUGGAGCCUGCUCUCCGCGCCUACCCUUCCCGCCUCCCUCUCAGAGGCCUGCUGCCAGUGCAGCCACUGGCUUGGAACACCUUGGGGUCCCUCC | 0.29 |
| UGGGGACUUCCUUCGUCAGCACUGGCUUUCUGUUUUCACAAGACAGACGUCUGUCCCGCUGCUCUCUCCCCAUCUCCUACCCCACAUCCUGUCUUAGCCGCAGUCUCCAG | 0.535 |
